Results pooled from the literature.
A part holds a random share of what one study measured. Positions count from the first letter of the parent shown.
Sequence of UniProt P10398 (whole entry, looked up): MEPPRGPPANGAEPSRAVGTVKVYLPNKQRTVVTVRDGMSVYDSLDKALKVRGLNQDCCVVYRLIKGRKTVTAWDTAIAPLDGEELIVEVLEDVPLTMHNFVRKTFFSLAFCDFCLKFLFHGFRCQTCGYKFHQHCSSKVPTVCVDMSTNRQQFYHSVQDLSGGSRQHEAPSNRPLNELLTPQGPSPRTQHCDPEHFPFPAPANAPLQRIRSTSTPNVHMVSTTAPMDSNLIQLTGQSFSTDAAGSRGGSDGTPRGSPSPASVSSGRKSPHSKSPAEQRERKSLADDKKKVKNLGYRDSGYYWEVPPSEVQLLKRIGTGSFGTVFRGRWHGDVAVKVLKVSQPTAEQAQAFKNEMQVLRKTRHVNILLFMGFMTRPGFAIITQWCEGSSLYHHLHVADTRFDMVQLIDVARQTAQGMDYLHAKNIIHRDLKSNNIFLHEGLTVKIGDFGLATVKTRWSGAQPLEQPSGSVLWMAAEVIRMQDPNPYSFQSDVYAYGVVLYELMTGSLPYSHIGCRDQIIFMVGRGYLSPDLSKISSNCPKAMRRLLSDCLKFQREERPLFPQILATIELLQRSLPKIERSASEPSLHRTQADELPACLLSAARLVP

Set 1
Target: Prothrombin, mature alpha-thrombin (F2, Homo sapiens, UniProt P00734)
Technique: aptamer microarray, sandwich
Molecule type: DNA with 2'F-ANA
Matrix: in vitro
Tested at: 200 nM
Notes: whole 15-mer aptamer, many near background
With: Cy3 exosite-II aptamer, 400 nM
Direction: higher = stronger binding
Oligonucleotide: GGTTGGTGTGGTTGG
`2'F-ANA at 2 3 4 5 6 8 9 10 11`: “mean fluorescence intensity” 58 a.u.
Under “mean fluorescence intensity”, `2'F-ANA at 6 11 12 15` is recorded as 569 a.u.
For `2'F-ANA at 1 3 5 6 8 9 10 15`, “mean fluorescence intensity” read 50.4 a.u.
Under “mean fluorescence intensity”, `2'F-ANA at 1 3 5 6 9 11 12 15` is recorded as 107 a.u.
For `2'F-ANA at 2 4 5 6 10 11 13 15`, “mean fluorescence intensity” read 46.6 a.u.
Under “mean fluorescence intensity”, `2'F-ANA at 1 2 6 8 9 10 12 13 14` is recorded as 48.7 a.u.
`2'F-ANA at 1 3 5 8 10 11 12 13 14 15` — result for “mean fluorescence intensity”: 47.7 a.u.
`2'F-ANA at 1 6 10 11 13 14`: “mean fluorescence intensity” 60.9 a.u.

Set 2
Target: TAR DNA-binding protein 43, full length, His tag (TARDBP, Homo sapiens, UniProt Q13148, residues 1-414)
Technique: RNA Bind-n-Seq
Molecule type: RNA
Matrix: in vitro
Tested at: 20 nM
Notes: 6-mer, flanks averaged, single round
With: 150 mM KCl
Baseline: input library
Direction: higher = stronger binding
`UGACCC`: “6-mer enrichment (R)” 0.685.
For `CGACUU`, “6-mer enrichment (R)” read 0.578.
For `GGCUUU`, “6-mer enrichment (R)” read 0.84.
Under “6-mer enrichment (R)”, `GGGACC` is recorded as 2.05.
Under “6-mer enrichment (R)”, `AAGGUC` is recorded as 0.698.
`CAUUGC` — result for “6-mer enrichment (R)”: 0.618.
Under “6-mer enrichment (R)”, `GAUCCA` is recorded as 0.655.
Under “6-mer enrichment (R)”, `AAUGUC` is recorded as 0.629.

Set 3
Target: Ras GTPase-activating protein-binding protein 1, full length (G3BP1, Homo sapiens, UniProt Q13283)
Sequence of UniProt Q13283 (whole entry, looked up): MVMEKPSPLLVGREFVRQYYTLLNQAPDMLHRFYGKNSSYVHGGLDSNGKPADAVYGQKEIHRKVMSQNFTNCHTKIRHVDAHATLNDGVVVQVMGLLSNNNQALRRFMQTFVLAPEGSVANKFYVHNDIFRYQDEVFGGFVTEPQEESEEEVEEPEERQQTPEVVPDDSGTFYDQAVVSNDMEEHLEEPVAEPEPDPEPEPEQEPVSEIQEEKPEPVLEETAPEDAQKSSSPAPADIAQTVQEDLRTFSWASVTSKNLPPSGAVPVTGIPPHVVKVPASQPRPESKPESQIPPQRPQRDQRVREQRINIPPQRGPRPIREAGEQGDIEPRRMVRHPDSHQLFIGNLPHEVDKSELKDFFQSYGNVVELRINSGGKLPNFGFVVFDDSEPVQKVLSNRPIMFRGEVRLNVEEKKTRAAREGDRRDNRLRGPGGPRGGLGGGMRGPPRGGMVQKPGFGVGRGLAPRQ
Technique: RNA Bind-n-Seq
Molecule type: RNA
Matrix: in vitro
Tested at: 200 nM
Notes: whole 134-nt RNA, ends assumed
With: 150 mM LiCl
Baseline: input library
Direction: higher = stronger binding
Each molecule: 7-deaza-guanosine replaces G
All sequences stand within: GGGAGUUCUACAGUCCGACGAUC … UGGAAUUCUCGGGUGUCAAGG
`ACCAUGCAGGUGGGCAUCUUUGGGAAGUGGGGCAAGGGGGGGAUAGGGAGGGGGGUAACACUUUGGGAACAGGUGGUCCCAGGUCAUUUC` has a log2 enrichment of 0.196.
With `CAAGUCCUGUGCUACACAUCGUAUGUACCGAAUCGGGUGGGUUUUUUUGGGAGGGAAAGUAUUAUGUUACGCCGUUCGGAUCUGCACUUC` the log2 enrichment was 0.521.
For `UGGCCCUGGUGGCAUGCGGGGAGGAAGAGGUGGCCUCAUGGAUCGUGGUGGUCCCGGUGGAAAGUUCAGAGGUGGCCGUGGUGGAGACAG`, the log2 enrichment was 0.449.
For `AGUCCUGUGCUACACAUCGUAUGUACCGAAUCAAAUUUUUAAACCCCCAAAUUUAAAAAAGUAUUAUGUUACGCCGUUCGGAUCUGCACU`, the log2 enrichment was -0.562.
The log2 enrichment of `ACCAUGCAGGUGGGCAUCUUUGGGAAGUGGGGCAAGGGGGGGAUAGGGAGGGGGGUAACGCUUUGGGAACAGGUGGUCCCAGGUCGUUUC` is reported as 0.0783.
`GUCCUGUGCUACACAUCGUAUGUACCGAAUCGGGUUUUUGGGGUUUUUGGGUUUUUGGAAAGUAUUAUGUUACGCCGUUCGGAUCUGCAC` gave a log2 enrichment of -0.212.
`CACAGACAACACGCACCCAAAAAGACACAGAGGGAAGGGGUUGGGAUGGGGACAGGGUGCACAGCAGGGCGGGGUAGGACCCCAGCCCCU` gave a log2 enrichment of 0.343.
`CUGUGCUACACAUCGUAUGUACCGAAUCGGGGCCCCCCCGGGCCCCCCCGGGCCCCCCCGGAAAGUAUUAUGUUACGCCGUUCGGAUCUG` has a log2 enrichment of 0.681.

Set 4
Target: CCNF, cyclin fold, Cln2 fusion (human)
Technique: yeast growth competition, sequencing
Matrix: yeast
Notes: strong parent motif
Baseline: not given
Direction: higher = stronger binding
Parent: viral docking peptide; TSVRRALFTGGSD
`G10I` — result for “normalised enrichment score”: 8.31.
Under “normalised enrichment score”, `L7G` is recorded as 0.126.
`A6C`: “normalised enrichment score” 8.67.
`R4K`: “normalised enrichment score” 7.26.
Under “normalised enrichment score”, `S12N` is recorded as 8.21.
Under “normalised enrichment score”, `R4L` is recorded as 1.86.
`S12Y` — result for “normalised enrichment score”: 8.6.
Under “normalised enrichment score”, `R5K` is recorded as 5.47.
`V3N`: “normalised enrichment score” 0.437.
For `T9W`, “normalised enrichment score” read 8.56.
Under “normalised enrichment score”, `F8W` is recorded as 6.59.
`G10F`: “normalised enrichment score” 8.62.
`G11E` — result for “normalised enrichment score”: 7.63.
`G10H` — result for “normalised enrichment score”: 8.21.
`R4A` — result for “normalised enrichment score”: 6.97.
`S2V` — result for “normalised enrichment score”: 7.81.
For `T9H`, “normalised enrichment score” read 8.74.
`T9A`: “normalised enrichment score” 7.99.
`T9I` — result for “normalised enrichment score”: 8.26.
`S12L`: “normalised enrichment score” 8.07.
`G11A`: “normalised enrichment score” 8.69.
`A6T` — result for “normalised enrichment score”: 7.33.
`V3A` — result for “normalised enrichment score”: 7.33.
`S12H`: “normalised enrichment score” 8.27.
`S12V` — result for “normalised enrichment score”: 8.27.

Other studies, line by line
For `CN1CC2CN(c3ccc(-c4ccccc4)nn3)CC2C1` (stereo not shown), “nuclear SOX9 intensity” read 118 % of DMSO (mouse MPNST tumor cells; high-content immunofluorescence imaging, measured: nuclear SOX9; 10 µM, 12 h, mean of 2 replicates; baseline: DMSO control, higher = more nuclear SOX9).
For `CC(C)(C)c1nc(-c2cccc(NS(=O)(=O)c3c(F)cccc3F)c2F)c(-c2ccnc(N)n2)s1`, the EC50 was 122 nM (Serine/threonine-protein kinase A-Raf (ARAF, Homo sapiens, UniProt P10398); kinase–CDC37 interaction, inhibitor; human cells; kinome plate 1@A11).
The fold induction of `PhoQ, residues 284 288 289 292 302 303 TTSMTC` is reported as 6.37 (PhoP, residues 12 14 15 18 19 LHATL (Escherichia coli, UniProt P23836); Sort-seq, measured: YFP reporter; E. coli; PhoQ-PhoP variant library, with: 10 µM Mg2+; baseline: high Mg2+ state, higher = stronger signaling).
